Experimental data collected from several papers.
A part holds a random share of what one study measured.
UniProt Q9UK32, sequence (whole entry, looked up): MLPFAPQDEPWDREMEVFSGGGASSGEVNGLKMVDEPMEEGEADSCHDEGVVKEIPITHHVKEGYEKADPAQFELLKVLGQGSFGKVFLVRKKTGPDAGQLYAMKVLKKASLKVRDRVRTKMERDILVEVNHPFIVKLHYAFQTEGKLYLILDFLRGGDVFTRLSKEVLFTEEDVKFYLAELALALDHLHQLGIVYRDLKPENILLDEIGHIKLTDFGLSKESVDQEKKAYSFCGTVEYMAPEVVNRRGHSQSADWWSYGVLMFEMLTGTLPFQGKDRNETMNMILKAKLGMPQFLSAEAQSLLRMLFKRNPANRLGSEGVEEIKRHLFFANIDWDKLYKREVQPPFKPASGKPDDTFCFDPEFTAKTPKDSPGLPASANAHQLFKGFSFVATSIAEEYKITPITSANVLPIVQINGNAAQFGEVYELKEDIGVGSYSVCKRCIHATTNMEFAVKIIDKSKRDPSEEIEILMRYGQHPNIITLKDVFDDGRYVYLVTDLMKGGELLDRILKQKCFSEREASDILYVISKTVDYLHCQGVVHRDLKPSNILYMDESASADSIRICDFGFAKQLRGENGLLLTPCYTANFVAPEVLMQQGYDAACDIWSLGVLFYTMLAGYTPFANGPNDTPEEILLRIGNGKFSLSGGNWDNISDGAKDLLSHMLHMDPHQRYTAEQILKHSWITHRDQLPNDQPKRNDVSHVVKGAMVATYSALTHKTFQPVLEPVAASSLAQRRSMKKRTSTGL
UniProt Q9UQ88, sequence (whole entry, looked up): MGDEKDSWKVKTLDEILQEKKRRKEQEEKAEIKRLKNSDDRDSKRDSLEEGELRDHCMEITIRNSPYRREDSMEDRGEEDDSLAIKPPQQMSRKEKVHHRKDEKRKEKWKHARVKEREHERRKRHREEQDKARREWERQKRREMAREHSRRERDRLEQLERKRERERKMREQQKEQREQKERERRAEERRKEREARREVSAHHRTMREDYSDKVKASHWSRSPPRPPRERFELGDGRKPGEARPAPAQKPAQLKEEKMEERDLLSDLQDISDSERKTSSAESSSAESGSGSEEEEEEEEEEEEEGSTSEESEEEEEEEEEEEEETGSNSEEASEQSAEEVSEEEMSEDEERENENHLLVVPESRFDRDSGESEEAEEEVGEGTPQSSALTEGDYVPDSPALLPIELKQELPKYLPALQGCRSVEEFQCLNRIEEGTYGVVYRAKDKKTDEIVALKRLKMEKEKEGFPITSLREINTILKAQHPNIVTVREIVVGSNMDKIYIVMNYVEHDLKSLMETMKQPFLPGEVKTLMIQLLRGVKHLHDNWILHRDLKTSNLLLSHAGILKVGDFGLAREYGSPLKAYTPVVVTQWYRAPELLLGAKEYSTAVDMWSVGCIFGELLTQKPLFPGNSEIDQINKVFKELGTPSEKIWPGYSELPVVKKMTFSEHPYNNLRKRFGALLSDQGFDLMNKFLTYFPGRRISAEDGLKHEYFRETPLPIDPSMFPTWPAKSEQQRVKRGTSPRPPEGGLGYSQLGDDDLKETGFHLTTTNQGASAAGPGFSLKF
UniProt Q9BYP7, sequence (whole entry, looked up): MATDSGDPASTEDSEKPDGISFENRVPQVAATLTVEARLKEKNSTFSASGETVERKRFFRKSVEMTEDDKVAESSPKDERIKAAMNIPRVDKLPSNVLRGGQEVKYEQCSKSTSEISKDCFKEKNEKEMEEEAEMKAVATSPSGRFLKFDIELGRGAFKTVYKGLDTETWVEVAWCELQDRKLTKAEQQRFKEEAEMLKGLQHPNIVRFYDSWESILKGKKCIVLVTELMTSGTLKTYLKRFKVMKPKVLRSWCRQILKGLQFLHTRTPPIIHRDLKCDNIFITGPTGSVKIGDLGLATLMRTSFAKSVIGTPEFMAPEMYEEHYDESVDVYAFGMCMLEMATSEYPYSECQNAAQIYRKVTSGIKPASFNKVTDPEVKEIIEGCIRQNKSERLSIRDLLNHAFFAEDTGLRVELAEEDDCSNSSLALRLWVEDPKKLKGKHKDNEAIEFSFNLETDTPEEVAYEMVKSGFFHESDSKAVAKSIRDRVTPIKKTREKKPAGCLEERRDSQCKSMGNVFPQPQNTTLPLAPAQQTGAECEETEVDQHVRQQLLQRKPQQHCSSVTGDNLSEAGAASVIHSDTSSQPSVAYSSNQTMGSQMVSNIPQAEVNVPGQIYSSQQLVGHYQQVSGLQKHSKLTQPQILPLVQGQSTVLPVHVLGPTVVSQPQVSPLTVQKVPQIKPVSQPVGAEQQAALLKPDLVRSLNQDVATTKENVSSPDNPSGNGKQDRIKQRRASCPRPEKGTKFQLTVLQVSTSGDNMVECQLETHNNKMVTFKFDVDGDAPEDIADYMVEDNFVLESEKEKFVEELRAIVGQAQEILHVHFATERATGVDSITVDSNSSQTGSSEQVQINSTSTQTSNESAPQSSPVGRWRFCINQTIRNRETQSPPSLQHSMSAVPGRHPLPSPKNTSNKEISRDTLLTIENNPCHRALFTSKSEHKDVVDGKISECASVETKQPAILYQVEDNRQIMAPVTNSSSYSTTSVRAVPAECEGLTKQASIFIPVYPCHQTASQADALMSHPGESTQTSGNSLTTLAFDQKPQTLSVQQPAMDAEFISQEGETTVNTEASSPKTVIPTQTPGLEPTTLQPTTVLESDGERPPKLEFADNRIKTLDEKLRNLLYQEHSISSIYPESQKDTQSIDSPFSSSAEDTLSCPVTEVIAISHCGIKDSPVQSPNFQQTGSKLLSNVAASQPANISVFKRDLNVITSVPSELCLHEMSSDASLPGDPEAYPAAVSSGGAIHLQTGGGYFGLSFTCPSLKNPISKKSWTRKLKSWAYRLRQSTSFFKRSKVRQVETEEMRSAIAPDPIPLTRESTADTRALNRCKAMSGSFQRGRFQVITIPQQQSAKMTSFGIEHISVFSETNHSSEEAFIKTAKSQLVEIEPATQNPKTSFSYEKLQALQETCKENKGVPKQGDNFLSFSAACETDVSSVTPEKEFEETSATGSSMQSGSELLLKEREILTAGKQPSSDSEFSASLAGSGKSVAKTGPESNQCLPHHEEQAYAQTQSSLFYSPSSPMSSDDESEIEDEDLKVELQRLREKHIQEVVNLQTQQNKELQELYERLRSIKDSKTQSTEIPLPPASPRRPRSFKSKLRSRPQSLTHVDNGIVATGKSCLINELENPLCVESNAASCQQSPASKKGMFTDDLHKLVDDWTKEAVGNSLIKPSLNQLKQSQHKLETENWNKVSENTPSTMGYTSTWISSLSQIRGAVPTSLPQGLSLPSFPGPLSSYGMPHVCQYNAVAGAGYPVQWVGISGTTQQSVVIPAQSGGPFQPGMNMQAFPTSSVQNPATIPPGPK
UniProt P30530, sequence (whole entry, looked up): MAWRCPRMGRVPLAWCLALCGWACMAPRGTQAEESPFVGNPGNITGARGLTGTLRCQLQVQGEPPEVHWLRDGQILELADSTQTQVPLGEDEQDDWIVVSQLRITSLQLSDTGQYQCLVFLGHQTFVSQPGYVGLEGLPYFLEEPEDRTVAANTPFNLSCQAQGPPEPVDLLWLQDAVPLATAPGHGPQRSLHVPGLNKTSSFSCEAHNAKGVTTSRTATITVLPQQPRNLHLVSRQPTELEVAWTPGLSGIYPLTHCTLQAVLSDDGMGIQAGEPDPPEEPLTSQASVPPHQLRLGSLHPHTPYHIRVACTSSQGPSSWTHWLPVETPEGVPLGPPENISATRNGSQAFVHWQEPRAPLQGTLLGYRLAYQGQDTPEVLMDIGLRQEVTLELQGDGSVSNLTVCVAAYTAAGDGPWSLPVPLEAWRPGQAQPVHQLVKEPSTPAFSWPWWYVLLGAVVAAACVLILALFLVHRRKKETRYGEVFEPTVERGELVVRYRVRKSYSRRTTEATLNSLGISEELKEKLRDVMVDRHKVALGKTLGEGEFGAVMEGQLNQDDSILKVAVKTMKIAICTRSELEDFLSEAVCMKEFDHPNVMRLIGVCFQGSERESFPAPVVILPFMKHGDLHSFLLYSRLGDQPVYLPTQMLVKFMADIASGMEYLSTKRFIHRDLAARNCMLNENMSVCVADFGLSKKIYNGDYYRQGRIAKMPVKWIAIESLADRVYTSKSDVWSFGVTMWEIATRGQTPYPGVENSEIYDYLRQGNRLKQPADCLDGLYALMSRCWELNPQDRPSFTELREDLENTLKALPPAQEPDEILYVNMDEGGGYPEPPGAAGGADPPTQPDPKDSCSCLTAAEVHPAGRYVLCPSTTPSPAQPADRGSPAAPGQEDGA
UniProt Q8IU85, sequence (whole entry, looked up): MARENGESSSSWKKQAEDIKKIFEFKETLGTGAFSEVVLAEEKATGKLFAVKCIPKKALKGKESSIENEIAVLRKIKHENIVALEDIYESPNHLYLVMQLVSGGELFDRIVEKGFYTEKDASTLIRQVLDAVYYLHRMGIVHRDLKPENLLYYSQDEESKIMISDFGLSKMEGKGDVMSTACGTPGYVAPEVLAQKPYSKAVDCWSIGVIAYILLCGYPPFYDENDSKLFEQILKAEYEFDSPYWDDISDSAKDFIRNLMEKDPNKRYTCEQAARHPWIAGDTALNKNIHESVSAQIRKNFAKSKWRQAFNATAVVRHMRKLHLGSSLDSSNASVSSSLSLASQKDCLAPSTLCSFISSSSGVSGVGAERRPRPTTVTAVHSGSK
UniProt Q16816, sequence (whole entry, looked up): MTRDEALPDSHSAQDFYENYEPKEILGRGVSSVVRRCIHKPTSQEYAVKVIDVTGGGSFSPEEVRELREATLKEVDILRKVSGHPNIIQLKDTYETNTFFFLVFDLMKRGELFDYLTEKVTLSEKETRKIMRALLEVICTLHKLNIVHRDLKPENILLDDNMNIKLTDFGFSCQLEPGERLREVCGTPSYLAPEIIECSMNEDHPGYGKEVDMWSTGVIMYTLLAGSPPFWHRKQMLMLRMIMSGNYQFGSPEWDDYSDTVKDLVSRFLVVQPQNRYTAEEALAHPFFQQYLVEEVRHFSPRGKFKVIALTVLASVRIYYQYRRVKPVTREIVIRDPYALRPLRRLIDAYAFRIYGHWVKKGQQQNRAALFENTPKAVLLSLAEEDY

Series 1
SMILES: Cc1cc(C)c(-n2ccn3nc(-c4cccnc4)cc23)cc1NC(=O)c1cc(C#N)cc(S(F)(F)(F)(F)F)c1
Method: competition with immobilised ligand
Concentration: 0.1 µM
| target | observed | remaining binding |
| --- | --- | --- |
| MKNK2 (Homo sapiens, UniProt Q9HBH9) | cell-free assay | 95% |
| PAK4 (Homo sapiens, UniProt O96013) | cell-free assay | 70.4% |
| CDK11B (Homo sapiens, UniProt P21127) | cell-free assay | 93.2% |
| MAP4K3 (Homo sapiens, UniProt Q8IVH8) | cell-free assay | 89.6% |
| CDK11A (Homo sapiens, UniProt Q9UQ88) | binding | 89.9% |
| VRK2 (Homo sapiens, UniProt Q86Y07) | cell-free assay | 79.8% |
| Tyrosine-protein kinase ABL1, non-phosphorylated (ABL1, Homo sapiens, UniProt P00519) | cell-free assay | 29.2% |
| CDK4 (Homo sapiens, UniProt P11802) | cell-free assay | 82.4% |
| EPHB1 (Homo sapiens, UniProt P54762) | cell-free assay | 100% |
| CAMK1D (Homo sapiens, UniProt Q8IU85) | cell-free assay | 71.6% |
| RIPK4 (Homo sapiens, UniProt P57078) | cell-free assay | 62.9% |
| CHEK2 (Homo sapiens, UniProt O96017) | cell-free assay | 100% |
| WEE2 (Homo sapiens, UniProt P0C1S8) | cell-free assay | 77.4% |
| MAPK15 (Homo sapiens, UniProt Q8TD08) | cell-free assay | 94.1% |
| ACVR2A (Homo sapiens, UniProt P27037) | cell-free assay | 100% |
| MAPK13 (Homo sapiens, UniProt O15264) | cell-free assay | 65.6% |

Series 2
Host: human
Medium: microsomes or S9
Concentration: 2 µM
Time: 0.5 h
| SMILES | remaining compound [%] |
| --- | --- |
| Cc1nc(C)c(COCc2ccccc2)c(-c2ccc(Cl)cc2)c1CO | 51.7 |
| Cn1nc2c(c1C(=O)N1CCC(C3CCCCN3S(C)(=O)=O)CC1)CCCC2 (stereo not shown) | 8.48 |
| Cc1cc(S(=O)(=O)N[C@H]2CC[C@H]2NC2CCN(C(C)C)CC2)c(C)s1 | 20.4 |
| O=C1COc2ccc(-c3cc4ccccn4c3)cc2N1 | 0 |
| CCN(CC)CC/C=C/C1(O)c2ccccc2-c2ccccc21 | 82.1 |
| Cc1nc(C2(NS(=O)(=O)c3c(C)c(C)c(C)c(C)c3C)CCCC2)no1 | 1.39 |
| O=C(COc1ccccc1F)NC[C@H]1CC[C@H](c2ncc(Cl)cc2-c2ccncc2)CC1 | 4.92 |
| Fc1ccc2nc(-c3csc(-c4ccco4)n3)[nH]c2c1 | 0.377 |
| Cc1ccc(CNc2ncc(-c3ccccc3F)c(-c3nccn3C)n2)cc1 | 3.74 |
| CCCc1nc(-c2ccc3ccccc3c2)cc2c1sc1ccccc12 | 83.6 |

Series 3
Organism: Sarcocystis neurona
Observed: parasite activity
Concentration: concentration not given
| Compound | activity class |
| --- | --- |
| CCC(C)(C)N=C(NC#N)Nc1cccnc1 | inactive |
| O=C(N[C@H](CO)[C@H](O)c1ccc([N+](=O)[O-])cc1)C(Cl)Cl | inactive |
| CC(C)c1ccc2c(c1)c(SC(C)(C)C)c(CC(C)(C)C(=O)O)n2Cc1ccc(Cl)cc1 | inactive |
| O=C(O[C@@H]1Cc2c(O)cc(O)cc2O[C@@H]1c1cc(O)c(O)c(O)c1)c1cc(O)c(O)c(O)c1 | inactive |
| CS(=O)(=O)O.O=C(O[C@H]1C[C@H]2CC3C[C@@H](C1)N2CC3=O)c1c[nH]c2ccccc12 | inactive |
| CN(CCO)CC(O)Cn1cnc2c1c(=O)n(C)c(=O)n2C.O=C(O)c1cccnc1 (stereo not shown) | inactive |
| O=C1c2c(O)cc(O)cc2OC(c2ccc(O)c(O)c2)C1O (stereo not shown) | inactive |
| CC(C)NCC(O)COc1cccc2ccccc12.Cl (stereo not shown) | inactive |

Series 4
SMILES: Cc1ccc(NC(=O)c2ccc(CN3CCN(C)CC3)cc2)cc1Nc1nccc(-c2cccnc2)n1
Observed: enzyme activity
Mode: inhibitor
Concentration: 0.5 µM
Baseline: control
| target | remaining activity [%] |
| --- | --- |
| EPHB4 (Homo sapiens, UniProt P54760) | 95.1 |
| RPS6KA6 (Homo sapiens, UniProt Q9UK32) | 101 |
| AXL (Homo sapiens, UniProt P30530) | 90.5 |
| HIPK2 (Homo sapiens, UniProt Q9H2X6) | 104 |
| RPS6KA5 (Homo sapiens, UniProt O75582) | 98.3 |
| PHKG1 (Homo sapiens, UniProt Q16816) | 93.4 |
| DYRK3 (Homo sapiens, UniProt O43781) | 96.4 |
| Cyclin-dependent kinase 6, with cyclin D3 (CDK6, Homo sapiens, UniProt Q00534) | 103 |
| WNK3 (Homo sapiens, UniProt Q9BYP7) | 99.4 |
| PDPK1 (Homo sapiens, UniProt O15530) | 95.2 |
| BLK (Homo sapiens, UniProt P51451) | 89 |
| SRMS (Homo sapiens, UniProt Q9H3Y6) | 100 |

A few entries again (series 4):
| target | remaining activity [%] |
| --- | --- |
| Cyclin-dependent kinase 6, with cyclin D3 (CDK6, Homo sapiens, UniProt Q00534) | 103 |
| PHKG1 (Homo sapiens, UniProt Q16816) | 93.4 |
| HIPK2 (Homo sapiens, UniProt Q9H2X6) | 104 |
| WNK3 (Homo sapiens, UniProt Q9BYP7) | 99.4 |
| DYRK3 (Homo sapiens, UniProt O43781) | 96.4 |
| BLK (Homo sapiens, UniProt P51451) | 89 |
